Measurements from different studies.
A part holds a random share of what one study measured. Several values in a cell are separate wells, animals, samples, runs or records.
UniProt P50750, sequence (whole entry, looked up): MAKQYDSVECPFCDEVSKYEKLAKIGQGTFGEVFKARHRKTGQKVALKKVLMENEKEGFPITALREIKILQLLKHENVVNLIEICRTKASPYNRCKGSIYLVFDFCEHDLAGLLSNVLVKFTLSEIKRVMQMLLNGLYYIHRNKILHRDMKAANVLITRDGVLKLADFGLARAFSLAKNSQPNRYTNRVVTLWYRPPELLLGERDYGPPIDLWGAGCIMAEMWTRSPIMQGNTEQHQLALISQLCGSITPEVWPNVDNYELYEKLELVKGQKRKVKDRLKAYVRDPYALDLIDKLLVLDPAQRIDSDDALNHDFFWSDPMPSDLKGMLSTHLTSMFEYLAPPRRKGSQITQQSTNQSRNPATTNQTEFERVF
UniProt Q9NWZ3, sequence (whole entry, looked up): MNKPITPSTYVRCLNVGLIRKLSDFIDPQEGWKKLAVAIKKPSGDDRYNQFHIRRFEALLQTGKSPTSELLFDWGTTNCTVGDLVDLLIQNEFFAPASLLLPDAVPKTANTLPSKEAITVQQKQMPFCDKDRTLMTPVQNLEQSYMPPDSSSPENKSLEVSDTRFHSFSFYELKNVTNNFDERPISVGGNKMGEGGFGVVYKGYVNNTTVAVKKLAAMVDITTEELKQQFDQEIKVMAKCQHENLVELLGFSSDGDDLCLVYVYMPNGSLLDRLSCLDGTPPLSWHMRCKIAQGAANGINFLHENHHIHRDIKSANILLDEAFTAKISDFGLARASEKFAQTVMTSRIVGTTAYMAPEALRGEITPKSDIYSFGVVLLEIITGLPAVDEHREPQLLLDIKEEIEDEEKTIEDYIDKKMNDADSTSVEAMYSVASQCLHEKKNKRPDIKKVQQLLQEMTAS
UniProt Q9Y243, sequence (whole entry, looked up): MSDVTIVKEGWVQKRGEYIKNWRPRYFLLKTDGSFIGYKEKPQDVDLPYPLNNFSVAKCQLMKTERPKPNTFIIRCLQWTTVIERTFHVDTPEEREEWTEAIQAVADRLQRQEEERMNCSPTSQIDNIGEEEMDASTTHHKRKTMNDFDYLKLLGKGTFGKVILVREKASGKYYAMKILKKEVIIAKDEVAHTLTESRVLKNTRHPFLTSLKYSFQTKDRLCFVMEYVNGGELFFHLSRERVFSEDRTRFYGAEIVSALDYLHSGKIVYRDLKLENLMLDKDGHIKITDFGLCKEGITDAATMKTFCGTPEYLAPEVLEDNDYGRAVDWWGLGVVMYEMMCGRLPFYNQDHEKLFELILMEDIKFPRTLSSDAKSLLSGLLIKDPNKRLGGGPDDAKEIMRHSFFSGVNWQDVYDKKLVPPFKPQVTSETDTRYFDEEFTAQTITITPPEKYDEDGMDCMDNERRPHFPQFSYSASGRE
UniProt Q06187, sequence (whole entry, looked up): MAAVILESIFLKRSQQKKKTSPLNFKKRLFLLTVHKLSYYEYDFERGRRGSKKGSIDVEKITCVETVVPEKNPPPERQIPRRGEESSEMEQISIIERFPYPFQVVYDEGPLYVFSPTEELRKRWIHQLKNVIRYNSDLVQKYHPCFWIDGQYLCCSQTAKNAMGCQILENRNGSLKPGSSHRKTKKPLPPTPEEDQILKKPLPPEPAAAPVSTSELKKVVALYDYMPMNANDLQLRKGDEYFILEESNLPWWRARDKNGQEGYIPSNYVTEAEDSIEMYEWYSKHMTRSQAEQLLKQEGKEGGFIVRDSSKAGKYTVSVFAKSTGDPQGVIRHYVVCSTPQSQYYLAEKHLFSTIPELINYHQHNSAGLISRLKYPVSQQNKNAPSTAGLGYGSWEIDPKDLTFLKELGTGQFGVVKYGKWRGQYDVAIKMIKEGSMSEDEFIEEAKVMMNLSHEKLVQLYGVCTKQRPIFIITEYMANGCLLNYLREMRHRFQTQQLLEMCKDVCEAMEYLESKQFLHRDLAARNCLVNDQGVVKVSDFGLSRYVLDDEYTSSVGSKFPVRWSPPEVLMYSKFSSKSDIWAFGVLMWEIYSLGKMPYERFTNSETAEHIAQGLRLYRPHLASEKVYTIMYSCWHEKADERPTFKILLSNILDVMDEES
UniProt P51957, sequence (whole entry, looked up): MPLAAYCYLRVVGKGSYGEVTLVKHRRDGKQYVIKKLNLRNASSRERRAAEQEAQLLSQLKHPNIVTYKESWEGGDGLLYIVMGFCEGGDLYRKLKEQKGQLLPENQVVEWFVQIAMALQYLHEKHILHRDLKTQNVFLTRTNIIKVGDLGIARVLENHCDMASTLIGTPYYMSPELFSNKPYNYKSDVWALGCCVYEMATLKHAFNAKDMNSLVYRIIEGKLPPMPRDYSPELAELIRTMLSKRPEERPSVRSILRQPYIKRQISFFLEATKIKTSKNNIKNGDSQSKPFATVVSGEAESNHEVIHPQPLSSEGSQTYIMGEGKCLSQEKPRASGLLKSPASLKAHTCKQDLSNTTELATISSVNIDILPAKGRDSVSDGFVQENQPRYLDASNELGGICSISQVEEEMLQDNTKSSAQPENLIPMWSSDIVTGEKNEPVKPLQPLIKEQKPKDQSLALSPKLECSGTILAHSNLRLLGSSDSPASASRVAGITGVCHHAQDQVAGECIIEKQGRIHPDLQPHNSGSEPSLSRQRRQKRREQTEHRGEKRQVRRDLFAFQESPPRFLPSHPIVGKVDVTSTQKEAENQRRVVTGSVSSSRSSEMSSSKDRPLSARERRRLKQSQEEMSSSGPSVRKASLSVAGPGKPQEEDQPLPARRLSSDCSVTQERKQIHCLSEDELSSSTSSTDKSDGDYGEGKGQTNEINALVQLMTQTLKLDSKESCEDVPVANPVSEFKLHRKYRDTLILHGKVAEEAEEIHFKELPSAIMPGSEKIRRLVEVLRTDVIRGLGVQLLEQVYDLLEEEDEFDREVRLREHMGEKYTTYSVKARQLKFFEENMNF
UniProt P53778, sequence (whole entry, looked up): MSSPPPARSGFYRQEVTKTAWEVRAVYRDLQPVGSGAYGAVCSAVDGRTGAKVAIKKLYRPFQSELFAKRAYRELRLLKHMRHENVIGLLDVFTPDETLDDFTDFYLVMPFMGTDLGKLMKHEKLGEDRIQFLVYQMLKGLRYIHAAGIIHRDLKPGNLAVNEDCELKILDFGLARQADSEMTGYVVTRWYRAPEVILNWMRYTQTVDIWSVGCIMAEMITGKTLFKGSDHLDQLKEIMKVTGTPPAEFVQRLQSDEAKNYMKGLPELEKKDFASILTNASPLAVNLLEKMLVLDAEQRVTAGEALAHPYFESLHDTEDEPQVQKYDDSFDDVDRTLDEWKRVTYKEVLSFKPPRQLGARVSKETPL
UniProt P07948, sequence (whole entry, looked up): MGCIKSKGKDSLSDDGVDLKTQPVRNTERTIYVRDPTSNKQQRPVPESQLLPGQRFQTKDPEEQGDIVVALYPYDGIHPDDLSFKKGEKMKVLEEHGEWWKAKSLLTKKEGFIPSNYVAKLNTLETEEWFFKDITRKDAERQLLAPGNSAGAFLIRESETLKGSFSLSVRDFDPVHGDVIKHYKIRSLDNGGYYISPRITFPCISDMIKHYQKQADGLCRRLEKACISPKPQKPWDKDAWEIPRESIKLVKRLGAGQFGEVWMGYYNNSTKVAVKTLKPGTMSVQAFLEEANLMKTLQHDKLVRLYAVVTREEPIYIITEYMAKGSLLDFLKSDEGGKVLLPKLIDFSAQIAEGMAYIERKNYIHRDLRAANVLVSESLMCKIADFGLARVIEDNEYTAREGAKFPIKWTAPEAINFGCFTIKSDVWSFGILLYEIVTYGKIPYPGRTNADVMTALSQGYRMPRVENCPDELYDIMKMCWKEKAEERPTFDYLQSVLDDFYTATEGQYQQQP
UniProt P10721, sequence (whole entry, looked up): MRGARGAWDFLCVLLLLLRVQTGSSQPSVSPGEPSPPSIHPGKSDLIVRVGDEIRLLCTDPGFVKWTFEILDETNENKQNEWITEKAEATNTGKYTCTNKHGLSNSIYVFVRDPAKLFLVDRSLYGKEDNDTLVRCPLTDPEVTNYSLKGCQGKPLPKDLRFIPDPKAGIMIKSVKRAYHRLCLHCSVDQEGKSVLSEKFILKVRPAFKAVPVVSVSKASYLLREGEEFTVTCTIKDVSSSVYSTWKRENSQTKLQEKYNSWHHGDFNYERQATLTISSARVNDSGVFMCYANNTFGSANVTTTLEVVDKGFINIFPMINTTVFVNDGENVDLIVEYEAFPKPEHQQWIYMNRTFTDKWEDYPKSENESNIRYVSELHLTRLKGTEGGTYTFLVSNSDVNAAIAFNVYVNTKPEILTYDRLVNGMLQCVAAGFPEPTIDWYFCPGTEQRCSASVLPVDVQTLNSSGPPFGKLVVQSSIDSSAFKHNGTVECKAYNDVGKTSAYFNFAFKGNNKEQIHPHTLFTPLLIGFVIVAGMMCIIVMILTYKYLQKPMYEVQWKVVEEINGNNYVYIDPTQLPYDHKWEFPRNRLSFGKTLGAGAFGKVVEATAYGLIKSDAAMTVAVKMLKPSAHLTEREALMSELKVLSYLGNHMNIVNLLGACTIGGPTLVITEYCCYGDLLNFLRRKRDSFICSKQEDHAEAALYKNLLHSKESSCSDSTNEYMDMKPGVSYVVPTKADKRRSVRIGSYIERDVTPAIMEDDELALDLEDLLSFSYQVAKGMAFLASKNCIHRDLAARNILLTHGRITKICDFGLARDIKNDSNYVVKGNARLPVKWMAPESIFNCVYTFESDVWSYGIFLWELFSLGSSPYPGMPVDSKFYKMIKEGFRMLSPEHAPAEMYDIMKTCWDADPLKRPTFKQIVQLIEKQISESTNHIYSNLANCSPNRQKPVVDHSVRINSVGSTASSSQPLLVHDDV
UniProt P52564, sequence (whole entry, looked up): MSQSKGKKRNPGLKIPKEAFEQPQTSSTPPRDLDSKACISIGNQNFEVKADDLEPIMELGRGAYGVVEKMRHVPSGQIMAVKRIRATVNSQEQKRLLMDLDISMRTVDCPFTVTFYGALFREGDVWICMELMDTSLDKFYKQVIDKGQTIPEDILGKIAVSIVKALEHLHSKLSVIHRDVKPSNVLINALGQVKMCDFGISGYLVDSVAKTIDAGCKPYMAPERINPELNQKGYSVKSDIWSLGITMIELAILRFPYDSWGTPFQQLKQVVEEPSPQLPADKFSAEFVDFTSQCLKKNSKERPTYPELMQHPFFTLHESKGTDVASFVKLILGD

Set 1
Cell line: mouse MPNST tumor cells
Technique: high-content nuclear imaging
Refers to: cell number
Tested at: 10 µM
Time: 12 h
Setting: mean of 2 replicates
Relative to: plate mean
Direction: higher = more cells
For COc1cc2nc(N3CCN(C(=O)C4CCCO4)CC3)nc(N)c2cc1OC (stereo not drawn), the nuclei count was 0.922 z-score and 2.08 z-score.
C[C@]12CCC(=O)C=C1C=C[C@@H]1[C@@H]2CC[C@@]2(C)[C@H]1CC[C@@]21CCC(=O)O1 has a nuclei count of 1.17 z-score and 3.38 z-score.
For CCCN(CCC)S(=O)(=O)c1ccc(C(=O)O)cc1, the nuclei count was 0.869 z-score and 1.7 z-score and 0.123 z-score.
For Cc1cc(C)c(N)c(C#Cc2cccc(F)c2)n1, the nuclei count was 6.74 z-score.
Cc1nc2sccn2c(=O)c1CCN1CCC(=C(c2ccc(F)cc2)c2ccc(F)cc2)CC1 has a nuclei count of 1.82 z-score.
For Cn1nnc2c(C(N)=O)ncn2c1=O, the nuclei count was 1.86 z-score and 2.03 z-score and 0.0321 z-score.
CCCC[S+]([O-])c1sc2nc(-c3cccs3)cc(-c3ccccc3)c2c1N (stereo not drawn) has a nuclei count of 3.05 z-score.
CCCS(=O)(=O)c1nc(NC2CC2)cc(-c2ccc3c(ccn3C3CC(C)(C)NC(C)(C)C3)c2)n1 gave a nuclei count of -5.99 z-score.
For COc1cc(NS(=O)(=O)c2ccc(N)cc2)ncn1, the nuclei count was 1.73 z-score.
The nuclei count of O=C1NCCN1CCN1CCC(c2cn(-c3ccc(F)cc3)c3ccc(Cl)cc23)CC1 is reported as -5.21 z-score.

Set 2
Cell line: A-375
Tested at: 100 µM
Time: 18 h
The viability of N=C(N)c1ccc(OCCCCCOc2ccc(C(=N)N)cc2)cc1 is reported as 57.5%.
With O=C(/C=C/c1cccc(S(=O)(=O)Nc2ccccc2)c1)NO the viability was 36.8%.
The viability of NC[C@@H]1O[C@H](O[C@H]2[C@@H](O)[C@H](O[C@@H]3[C@@H](O)[C@H](N)C[C@H](N)[C@H]3O[C@H]3O[C@H](CO)[C@@H](O)[C@H](O)[C@H]3N)O[C@@H]2CO)[C@H](N)[C@@H](O)[C@@H]1O is reported as 94%.
The viability of N[C@@H](CC(=O)N1CCn2c(nnc2C(F)(F)F)C1)Cc1cc(F)c(F)cc1F is reported as 81.7%.
CC(=O)N[C@@H](CCC(N)=O)C(=O)O has a viability of 111%.
Cc1cc(O)cc(C)c1Cl gave a viability of 66.4%.
The viability of Nc1nccs1 is reported as 81.4%.
For Nc1cc(N2CCCCC2)nc(N)[n+]1[O-], the viability was 97.8%.
With CC1=C(C(=O)O)N2C(=O)[C@@H](NC(=O)[C@H](N)C3=CCC=CC3)[C@H]2SC1 the viability was 107%.
CCOC(=O)c1c(CSc2ccccc2)n(C)c2cc(Br)c(O)c(CN(C)C)c12 has a viability of 13.2%.
The viability of O=C(O)CCCCCCCC(=O)O is reported as 105%.
With CC(C)/N=c1\cc2n(-c3ccc(Cl)cc3)c3ccccc3nc-2cc1Nc1ccc(Cl)cc1 the viability was 52.8%.
NS(=O)(=O)c1cc2c(cc1Cl)N=CNS2(=O)=O gave a viability of 96%.

Set 3
Cell line: normal organoid sample D
Technique: CellTiter-Glo
Host: human
Medium: normal-adjacent epithelium
Tested at: 1 µM
Relative to: DMSO
Cc1ccc2nc(CNCCCOc3ccccc3)cc(O)c2c1 has a viability of 144% and 111%.
The viability of O=C1NC(c2ccccn2)Sc2ccccc21 (stereo not drawn) is reported as 101% and 110%.
The viability of O=C(NS(=O)(=O)c1ccc(NCC2CCOCC2)c([N+](=O)[O-])c1)c1ccc(N2CCN(Cc3ccc(C(F)(F)F)cc3-c3ccc(Cl)cc3)CC2)cc1Oc1cnc2[nH]ccc2c1 is reported as 98.4% and 69.8%.
Cc1nc(N2CC[C@@H](O)C2)ncc1-c1cc(C(F)(F)F)cc2[nH]ncc12 has a viability of 100% and 78.2%.
O=C(O)c1cc(-c2ccc(C3CCNCC3)cc2)c2ccc(-c3ccc(C(F)(F)F)cc3)cc2c1 has a viability of 134% and 105%.
Cc1c(Oc2ccc(F)cc2)c(OC(C)C)nn1-c1ccc(C2CC2)cn1 has a viability of 110% and 87.4%.
With CO[C@@H](C)c1c(Nc2ccc([C@H](N(C)C(=O)C3CCS(=O)(=O)CC3)C(F)(F)F)cc2)cnc2cc(Cl)nn12 the viability was 80.1% and 87.4%.
With Cc1c(NC(=O)c2ccc(C(C)(C)C)cc2)cccc1-c1cn(C)c(=O)c(Nc2ccc(C(=O)N3CCOCC3)cc2)n1 the viability was 67.2% and 98.7%.
With CC(=O)C1=C(C)N(c2cccc(C(F)(F)F)c2)C(=O)N[C@H]1c1ccc(C#N)nc1 the viability was 105% and 99%.
CCNC(=O)c1cc2c(N3CCOC[C@@H]3C)ccnc2[nH]1 gave a viability of 119% and 103%.
With Cn1cc(Cl)c2c(Oc3c(F)cc(Nc4cc(Cl)nc(N)n4)cc3F)ccnc21 the viability was 105% and 96.6%.
Cc1ccc2[nH]c(CNCCCc3ccncc3)cc(=O)c2c1 has a viability of 101% and 105%.

Set 4
SMILES: CCOc1cc2ncnc(Nc3cccc(Br)c3)c2cc1OCC
Observed: enzyme activity
Action: inhibitor
Tested at: 0.5 µM
Relative to: control
The remaining activity was 34.3% (MAP kinase-interacting serine/threonine-protein kinase 2 (MKNK2, Homo sapiens, UniProt Q9HBH9)).
It gave 95.9% for remaining activity (Casein kinase II subunit alpha (CSNK2A1, Homo sapiens, UniProt P68400)).
Casein kinase I isoform alpha (CSNK1A1, Homo sapiens, UniProt P48729) — remaining activity: 98.6%.
Ephrin type-A receptor 5 (EPHA5, Homo sapiens, UniProt P54756) — remaining activity: 69.5%.
The remaining activity was 102% (Interleukin-1 receptor-associated kinase 4 (IRAK4, Homo sapiens, UniProt Q9NWZ3)).
The remaining activity was 104% (RAC-gamma serine/threonine-protein kinase (AKT3, Homo sapiens, UniProt Q9Y243)).
It gave 84.8% for remaining activity (Serine/threonine-protein kinase Nek4 (NEK4, Homo sapiens, UniProt P51957)).
Dual specificity mitogen-activated protein kinase kinase 6 (MAP2K6, Homo sapiens, UniProt P52564) — remaining activity: 92.6%.
Cyclin-dependent kinase 9, with cyclin T1 (CDK9, Homo sapiens, UniProt P50750) — remaining activity: 98.5%.
It gave 96.7% for remaining activity (Mitogen-activated protein kinase 13 (MAPK13, Homo sapiens, UniProt O15264)).
The remaining activity was 78.7% (Leucine-rich repeat serine/threonine-protein kinase 2 (LRRK2, Homo sapiens, UniProt Q5S007)).
The remaining activity was 74.4% (Mast/stem cell growth factor receptor Kit (KIT, Homo sapiens, UniProt P10721)).
It gave 99.8% for remaining activity (Serine/threonine-protein kinase PLK2 (PLK2, Homo sapiens, UniProt Q9NYY3)).
It gave 32.1% for remaining activity (Tyrosine-protein kinase Lyn (LYN, Homo sapiens, UniProt P07948)).
Mitogen-activated protein kinase kinase kinase kinase 2 (MAP4K2, Homo sapiens, UniProt Q12851) — remaining activity: 91.5%.
For cGMP-dependent protein kinase 1 (PRKG1, Homo sapiens, UniProt Q13976): remaining activity read 96.7%.
Mitogen-activated protein kinase 12 (MAPK12, Homo sapiens, UniProt P53778) — remaining activity: 105%.
It gave 100% for remaining activity (Protein kinase C iota type (PRKCI, Homo sapiens, UniProt P41743)).
For Protein kinase C delta type (PRKCD, Homo sapiens, UniProt Q05655): remaining activity read 100%.
For Tyrosine-protein kinase BTK (BTK, Homo sapiens, UniProt Q06187): remaining activity read 72.7%.
It gave 115% for remaining activity (Serine/threonine-protein kinase Chk1 (CHEK1, Homo sapiens, UniProt O14757)).
For Serine/threonine-protein kinase WNK2 (WNK2, Homo sapiens, UniProt Q9Y3S1): remaining activity read 95.8%.
